# Published values pooled from the literature.
# Values joined by “and” are separate records of one study, mostly repeats; a detail may differ. Numbers after ± are the reported error.
# BCL6: B-cell lymphoma 6 protein (BCL6, Homo sapiens, UniProt P41182)
# NR1H3: Oxysterols receptor LXR-alpha (NR1H3, Homo sapiens, UniProt Q13133)
# Sequence of UniProt Q13133 (whole entry, looked up): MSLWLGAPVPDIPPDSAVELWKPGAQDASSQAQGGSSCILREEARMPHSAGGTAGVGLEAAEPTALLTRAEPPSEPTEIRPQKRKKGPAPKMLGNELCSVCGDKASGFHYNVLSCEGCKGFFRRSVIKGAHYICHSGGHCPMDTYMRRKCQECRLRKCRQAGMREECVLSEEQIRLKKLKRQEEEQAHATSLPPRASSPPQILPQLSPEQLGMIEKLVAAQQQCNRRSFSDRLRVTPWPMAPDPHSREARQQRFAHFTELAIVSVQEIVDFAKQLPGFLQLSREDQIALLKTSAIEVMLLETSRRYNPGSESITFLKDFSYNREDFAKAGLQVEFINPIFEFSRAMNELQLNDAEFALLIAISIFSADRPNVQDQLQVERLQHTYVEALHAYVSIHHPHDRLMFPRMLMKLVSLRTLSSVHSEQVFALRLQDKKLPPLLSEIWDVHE
# DNA topoisomerase 4 subunit A with ParE subunit: DNA topoisomerase 4 subunit A, with ParE subunit (Escherichia coli K-12, UniProt P0AFI2)
# Sequence of UniProt P0AFI2 (whole entry, looked up): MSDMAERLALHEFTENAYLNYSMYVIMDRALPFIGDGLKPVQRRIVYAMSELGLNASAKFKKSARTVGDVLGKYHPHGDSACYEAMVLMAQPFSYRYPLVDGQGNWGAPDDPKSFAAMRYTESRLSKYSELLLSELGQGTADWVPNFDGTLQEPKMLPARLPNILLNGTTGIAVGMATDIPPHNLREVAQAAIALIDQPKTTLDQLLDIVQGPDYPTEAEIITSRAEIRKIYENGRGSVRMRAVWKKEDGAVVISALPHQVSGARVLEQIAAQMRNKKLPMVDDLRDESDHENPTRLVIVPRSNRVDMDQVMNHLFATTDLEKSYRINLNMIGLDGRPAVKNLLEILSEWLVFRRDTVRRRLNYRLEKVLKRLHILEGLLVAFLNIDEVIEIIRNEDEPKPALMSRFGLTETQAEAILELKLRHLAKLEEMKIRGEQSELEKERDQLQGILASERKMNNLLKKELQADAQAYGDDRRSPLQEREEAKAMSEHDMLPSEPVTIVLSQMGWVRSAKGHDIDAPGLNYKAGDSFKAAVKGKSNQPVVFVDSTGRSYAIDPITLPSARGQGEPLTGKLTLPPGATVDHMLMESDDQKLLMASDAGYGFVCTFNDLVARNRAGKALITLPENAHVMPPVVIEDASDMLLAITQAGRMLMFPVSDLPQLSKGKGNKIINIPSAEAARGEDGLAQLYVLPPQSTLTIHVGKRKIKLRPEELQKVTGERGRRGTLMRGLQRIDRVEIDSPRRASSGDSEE
# qscR DNA-bound dimer: qscR, DNA-bound dimer (Pseudomonas aeruginosa, UniProt G3XD77)
# KCNH2: Voltage-gated inwardly rectifying potassium channel KCNH2 (KCNH2, Homo sapiens, UniProt Q12809)
# Sequence of UniProt Q12809 (whole entry, looked up): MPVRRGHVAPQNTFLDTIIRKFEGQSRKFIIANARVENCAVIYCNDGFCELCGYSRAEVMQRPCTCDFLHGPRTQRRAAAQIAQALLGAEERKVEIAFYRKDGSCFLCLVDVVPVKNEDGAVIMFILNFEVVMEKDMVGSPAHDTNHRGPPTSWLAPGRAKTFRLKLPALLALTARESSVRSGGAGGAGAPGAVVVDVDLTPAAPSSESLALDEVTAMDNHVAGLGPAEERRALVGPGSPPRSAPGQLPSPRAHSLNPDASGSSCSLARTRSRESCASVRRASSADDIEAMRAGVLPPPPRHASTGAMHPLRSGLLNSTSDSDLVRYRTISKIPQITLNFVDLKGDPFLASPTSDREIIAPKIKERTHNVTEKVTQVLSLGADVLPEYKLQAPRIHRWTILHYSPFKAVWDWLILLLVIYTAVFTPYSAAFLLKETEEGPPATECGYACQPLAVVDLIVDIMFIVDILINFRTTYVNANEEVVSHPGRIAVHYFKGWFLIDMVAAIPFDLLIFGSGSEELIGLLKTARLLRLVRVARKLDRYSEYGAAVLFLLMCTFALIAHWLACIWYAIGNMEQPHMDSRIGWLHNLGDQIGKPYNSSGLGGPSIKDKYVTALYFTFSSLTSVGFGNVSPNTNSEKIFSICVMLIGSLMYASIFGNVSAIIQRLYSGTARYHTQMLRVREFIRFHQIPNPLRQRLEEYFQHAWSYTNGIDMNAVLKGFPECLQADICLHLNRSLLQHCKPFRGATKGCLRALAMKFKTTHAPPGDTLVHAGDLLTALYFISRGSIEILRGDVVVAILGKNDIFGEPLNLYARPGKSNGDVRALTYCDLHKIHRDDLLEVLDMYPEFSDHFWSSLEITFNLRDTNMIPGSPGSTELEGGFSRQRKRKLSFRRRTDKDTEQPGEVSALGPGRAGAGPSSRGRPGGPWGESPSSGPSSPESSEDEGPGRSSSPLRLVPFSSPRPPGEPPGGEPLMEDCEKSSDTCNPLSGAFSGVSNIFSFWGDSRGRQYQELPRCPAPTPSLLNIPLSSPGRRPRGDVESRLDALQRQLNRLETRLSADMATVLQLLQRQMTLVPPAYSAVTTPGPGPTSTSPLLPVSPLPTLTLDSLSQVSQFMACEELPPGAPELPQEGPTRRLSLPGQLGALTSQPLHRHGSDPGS
# Sequence of UniProt P51449 (whole entry, looked up): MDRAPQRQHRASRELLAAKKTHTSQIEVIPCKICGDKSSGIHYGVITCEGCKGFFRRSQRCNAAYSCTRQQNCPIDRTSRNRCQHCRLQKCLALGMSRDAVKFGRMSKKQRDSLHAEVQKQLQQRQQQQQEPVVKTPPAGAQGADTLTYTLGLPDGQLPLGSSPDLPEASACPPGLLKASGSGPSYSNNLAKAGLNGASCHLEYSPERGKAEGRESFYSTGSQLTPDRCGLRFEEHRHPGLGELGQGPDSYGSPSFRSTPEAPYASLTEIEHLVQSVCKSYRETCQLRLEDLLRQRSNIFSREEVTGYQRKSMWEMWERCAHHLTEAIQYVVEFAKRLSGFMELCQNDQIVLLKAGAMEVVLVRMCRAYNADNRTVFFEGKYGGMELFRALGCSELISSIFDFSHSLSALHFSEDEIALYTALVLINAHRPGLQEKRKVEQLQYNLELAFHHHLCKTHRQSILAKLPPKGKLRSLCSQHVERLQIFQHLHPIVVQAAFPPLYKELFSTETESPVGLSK
# Sequence of UniProt P11233 (whole entry, looked up): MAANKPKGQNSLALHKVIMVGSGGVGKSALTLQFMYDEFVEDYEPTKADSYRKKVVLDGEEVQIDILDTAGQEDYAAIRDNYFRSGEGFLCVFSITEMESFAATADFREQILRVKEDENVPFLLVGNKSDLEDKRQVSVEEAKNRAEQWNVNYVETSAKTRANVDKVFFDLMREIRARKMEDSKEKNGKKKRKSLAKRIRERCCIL
# Sequence of UniProt P08172 (whole entry, looked up): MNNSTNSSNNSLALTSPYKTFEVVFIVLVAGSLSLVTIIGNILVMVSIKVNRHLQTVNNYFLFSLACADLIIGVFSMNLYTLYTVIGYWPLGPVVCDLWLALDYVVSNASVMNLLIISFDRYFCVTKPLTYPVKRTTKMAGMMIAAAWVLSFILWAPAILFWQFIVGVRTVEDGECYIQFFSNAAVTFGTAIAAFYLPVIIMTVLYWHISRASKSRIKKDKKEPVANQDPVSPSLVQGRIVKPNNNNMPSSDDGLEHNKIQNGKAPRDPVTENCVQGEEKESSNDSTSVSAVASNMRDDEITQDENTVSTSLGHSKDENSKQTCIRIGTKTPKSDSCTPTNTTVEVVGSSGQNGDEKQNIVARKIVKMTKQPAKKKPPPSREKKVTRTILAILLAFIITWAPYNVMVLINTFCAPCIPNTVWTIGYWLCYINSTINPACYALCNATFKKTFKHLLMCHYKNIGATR
Compound,target,assay,test system,conditions,IC50
O=[N+]([O-])c1cc(-c2ccnc(N3CCOCC3)n2)ccc1NCCCCCCN1C[C@H](O)[C@@H](O)[C@H](O)[C@H]1CO,"Mogs (Mus musculus, UniProt Q80UM7)","enzyme activity, inhibitor",,together with: trisaccharide substrate,< 0.001 µM
Cn1c(=O)n(CCC(C)(C)O)c2cc(Nc3ncnc(Cl)c3Cl)ccc21,BCL6,,,,1.95 µM
CCOP(=O)(OCC)Oc1cc(C)nc(C(C)C)n1,carboxylesterase mouse,inhibitor,PON1+/+ mouse liver homogenate,"30 min, 23 °C",0.0035 µM and 0.0045 µM and 0.0036 µM
O=C1c2ccccc2C(=O)C1C(=O)C(c1ccccc1)c1ccc(Cl)cc1 (centres unmarked),NR1H3,"receptor activity, inhibitor",cells,,24.3 ± 12.5 µM
Cn1c(=O)n(CCC(C)(C)O)c2cc(Nc3nc(N4CC5CCC(C4)C5(F)F)ncc3Cl)ccc21,BCL6,,,,0.75 µM and 0.47 µM and 1.01 µM
Cn1c(=O)ccc2ccc(F)c(CCNC[C@H]3CN(c4cnc5c(n4)NC(=O)CO5)C(=O)O3)c21,DNA topoisomerase 4 subunit A with ParE subunit,"decatenation activity, inhibitor",,,0.0096 µM
COCCn1c2nc(=O)n(-c3ccccc3)c(=O)c-2nc2ccccc21,"Genome polyprotein, methyltransferase domain (pol, Dengue virus type 3, UniProt Q6YMS4)",HTRF,Dengue virus 3,,6 µM
CCCCCCCCCC(=O)CC(=O)N[C@H]1CCOC1=O,qscR DNA-bound dimer,"ligand binding, FRET displacement",,"protein 5 nM with DNA, together with: fluorescent ligand 2 µM",0.0621 µM
O=S(=O)(F)c1ccc(S(=O)(=O)Nc2cc(F)cc(C3CC3)c2)c2c1CCCC2,"RALA (Homo sapiens, UniProt P11233)",,,,52 µM
CCCCCc1cc(/C=C2\N=C(c3ccc[nH]3)C=C2Oc2ccccc2)[nH]c1C,KCNH2,,,,> 10 µM
C[C@]12C[C@@H](O)[C@H]3[C@@H](CC[C@]4(O)C[C@@H](O)C[C@@H](O)[C@]34CO)[C@@]1(O)CC[C@@H]2c1cn(Cc2ccccc2)nn1,KCNH2,inhibitor,,,> 62.5 µM
Cn1c(=O)n(CCC(C)(C)O)c2cc(Nc3nc(N4CCC(C(F)(F)F)CC4)ncc3Cl)ccc21,BCL6,,,,1.19 µM and 0.77 µM
O=C(O)CC(F)(F)C(=O)N1N=C(c2c(-c3ccc(Cl)cc3)c3ccccc3[nH]c2=O)C[C@H]1c1ccc(Cl)cc1,"Grin1/Grin2b/Glutamate receptor ionotropic, NMDA 2D (Rattus norvegicus, UniProt P35439+Q00960+Q62645)","ion current, inhibitor, two-electrode voltage clamp",Xenopus oocytes,together with: glycine and aspartate,0.091 µM
Cc1nc(C)c(-c2ncc(Cl)c(Nc3ccc4c(c3)n(CCC(C)(C)O)c(=O)n4C)n2)s1,BCL6,,,,1.72 µM and 1.56 µM
CCCCCCCC/C=C\CCCCCCCC(=O)C(F)(F)P(=O)(O)O,"Glycerol-3-phosphate acyltransferase (plsY, Streptococcus pneumoniae, UniProt P0A4Q0)",inhibitor,,,20 µM
O=C1c2ccccc2C(=O)C1C(=O)C(c1ccccc1)c1ccccc1,NR1H3,"receptor activity, inhibitor",cells,,35.7 ± 35.5 µM
Cc1ccn(-c2ncc(Cl)c(Nc3ccc4c(c3)n(CCC(C)(C)O)c(=O)n4C)n2)n1,BCL6,,,,0.37 µM and 0.43 µM and 0.34 µM
Cn1c(=O)ccc2ccc(F)c(CCNC[C@H]3CN(c4ccc5c(n4)NC(=O)CO5)C(=O)O3)c21,DNA topoisomerase 4 subunit A with ParE subunit,"decatenation activity, inhibitor",,,0.03 µM
CCCCCCCCCC(=O)NC1CCCC1,qscR DNA-bound dimer,"ligand binding, FRET displacement",,"protein 5 nM with DNA, together with: fluorescent ligand 2 µM",2.34 µM
OC(c1ccc(F)cc1)C(F)(F)CCN1CCC(O)(c2ccc(Cl)cc2)CC1 (racemic),KCNH2,"potassium current, inhibitor, automated patch clamp",CHO hERG-DUO cells,,0.69 µM
Cc1c([C@H](C)[C@@H]2NC[C@@H](C)C[C@H]2O)ccc2c1C[C@H]1[C@H]2CC=C2C[C@@H](O)CC[C@@]21C,"RORC (Homo sapiens, UniProt P51449)","reporter gene, inhibitor, GAL4 dual-luciferase reporter",HEK293T,24 h,4.37 ± 1.55 µM
Ic1ccccc1CN[C@@H]1C2CCN(CC2)[C@@H]1C(c1ccccc1)c1ccccc1 (racemic),"TACR1 (Homo sapiens, UniProt P25103)",inhibitor,,"human, concurrent measurement",0.00725 µM
C[C@H]1CN(c2n[nH]c3nc(N[C@H]4CC[C@H](NS(=O)(=O)CCC(F)(F)F)CC4)ncc23)CCO1,"MELK (Homo sapiens, UniProt Q14680)",biochemical,,,≥ 20 µM
C[C@@H]1CC[C@H]2[C@@H](C)C(=O)O[C@@H]3O[C@@]4(C)CC[C@@H]1[C@]32OO4,"20S proteasome (Plasmodium falciparum, UniProt A0A5K1K7U1+Q8IJT1)","chymotrypsin-like activity, inhibitor, Proteasome-Glo",P. falciparum 3D7 lysate,48 h,> 0.1 µM
Nc1ncnc2c1c(Oc1cncc(C(F)(F)F)c1)nn2C1CC1,"CDPK1 (Toxoplasma gondii, UniProt Q9BJF5)","enzyme activity, inhibitor",,,> 20 µM
[Fe+2].[O-][Cl+3]([O-])([O-])[O-].[O-][Cl+3]([O-])([O-])[O-],"Proteasome subunit beta type-6, caspase-like site (PSMB6, Homo sapiens, UniProt P28072)","caspase-like activity, inhibitor, purified 20S proteasome",,"pH 7.4, together with: 20 µM Z-LLE-AMC",> 1000 µM
CCOP(=O)(OCC)Oc1ccc([N+](=O)[O-])cc1,carboxylesterase mouse,inhibitor,PON1+/+ mouse liver homogenate,"30 min, 23 °C",0.0008 µM and 0.0012 µM and 0.0014 µM
O=S(=O)(Nc1ccc(-c2n[nH]c(=S)o2)cc1)c1ccc(C(F)(F)F)cc1,"P2X purinoceptor 7 (P2RX7, Homo sapiens, UniProt Q99572)","calcium mobilization, antagonist",MCF7 transfected with P2RX7,together with: 100 µM BzATP,0.89 ± 0.073 µM
Cn1c(=O)n(CCC(C)(C)O)c2cc(Nc3nc(N4CCOCC4)ncc3Cl)ccc21,BCL6,,,,0.34 µM and 0.2 µM
O=c1[nH]c2ccccc2n1C1CCN(Cc2ccc(-c3nc4cc5[nH]cnc5cc4nc3-c3ccccc3)cc2)CC1,"Nuclear receptor ROR-gamma, RORγt ligand-binding domain (RORC, Homo sapiens, UniProt P51449)","co-activator peptide binding, inhibitor, HTRF",,"2 h, RORγt LBD 100 nM, together with: SRC1-2 peptide 100 nM",0.89 ± 0.33 µM
CCCCCCCCCCCC(=O)N[C@H]1CCOC1=O,qscR DNA-bound dimer,"ligand binding, FRET displacement",,"protein 5 nM with DNA, together with: fluorescent ligand 2 µM",0.0311 µM
CNC(C)Cc1ccc2nonc2c1 (centres unmarked),"SLC29A4 (Homo sapiens, UniProt Q7RTT9)",,,,20.2 ± 4.8 µM
N#Cc1cc2nc(O)c(O)nc2cc1[N+](=O)[O-],"Glutamate receptor 3 (Rattus norvegicus, UniProt P19492, D677A)",,,,1.2 ± 0.3 µM
CC(=O)c1cc(O)c2ccccc2c1O,"Genome polyprotein, NS5 methyltransferase domain (GP1, West Nile virus, UniProt Q9Q6P4)",IC50-HTRF,,,5.2 µM
CCCCn1c(=O)n(C)c2ccc(Nc3ccnc(Cl)c3C#N)cc21,BCL6,,,,5.56 µM and 8.01 µM
COc1cc(Nc2ncc(F)c(Nc3ccc4c(n3)NC(=O)C(C)(C)O4)n2)cc(OC)c1OC,"Caspase-10 (CASP10, Homo sapiens, UniProt Q92851)",,,,> 10 µM
C[C@@H]1CN(c2cc(Nc3ccc4c(c3)n(CCC(C)(C)O)c(=O)n4C)c(Cl)cn2)C[C@H](C)O1,BCL6,,,,0.86 µM
COc1ncccc1-c1cnn2ccc(N3CCN(C(=O)OC(C)C)CC3)nc12,"CHRM2 (Homo sapiens, UniProt P08172)",liability screen,,,23 µM

# Repeated from above:
Compound,target,assay,test system,conditions,IC50
Cn1c(=O)ccc2ccc(F)c(CCNC[C@H]3CN(c4ccc5c(n4)NC(=O)CO5)C(=O)O3)c21,DNA topoisomerase 4 subunit A with ParE subunit,"decatenation activity, inhibitor",,,0.03 µM
CCCCCCCCCC(=O)NC1CCCC1,qscR DNA-bound dimer,"ligand binding, FRET displacement",,"protein 5 nM with DNA, together with: fluorescent ligand 2 µM",2.34 µM
OC(c1ccc(F)cc1)C(F)(F)CCN1CCC(O)(c2ccc(Cl)cc2)CC1 (racemic),KCNH2,"potassium current, inhibitor, automated patch clamp",CHO hERG-DUO cells,,0.69 µM
Cc1c([C@H](C)[C@@H]2NC[C@@H](C)C[C@H]2O)ccc2c1C[C@H]1[C@H]2CC=C2C[C@@H](O)CC[C@@]21C,"RORC (Homo sapiens, UniProt P51449)","reporter gene, inhibitor, GAL4 dual-luciferase reporter",HEK293T,24 h,4.37 ± 1.55 µM
Ic1ccccc1CN[C@@H]1C2CCN(CC2)[C@@H]1C(c1ccccc1)c1ccccc1 (racemic),"TACR1 (Homo sapiens, UniProt P25103)",inhibitor,,"human, concurrent measurement",0.00725 µM
